Results from different studies.
Each line is one published result; not all experiments were run side by side.
UniProt P35372, sequence (whole entry, looked up): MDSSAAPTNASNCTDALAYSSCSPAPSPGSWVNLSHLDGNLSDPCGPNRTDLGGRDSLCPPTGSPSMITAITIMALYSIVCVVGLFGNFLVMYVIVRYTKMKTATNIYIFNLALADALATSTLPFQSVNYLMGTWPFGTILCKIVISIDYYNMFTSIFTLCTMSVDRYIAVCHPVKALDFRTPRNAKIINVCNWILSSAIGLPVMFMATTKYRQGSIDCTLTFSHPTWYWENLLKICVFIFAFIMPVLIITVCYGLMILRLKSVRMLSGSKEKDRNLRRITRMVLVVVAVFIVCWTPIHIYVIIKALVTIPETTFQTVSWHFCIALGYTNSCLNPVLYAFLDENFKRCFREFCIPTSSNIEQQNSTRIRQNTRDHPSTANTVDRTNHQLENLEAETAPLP
UniProt O15530, sequence (whole entry, looked up): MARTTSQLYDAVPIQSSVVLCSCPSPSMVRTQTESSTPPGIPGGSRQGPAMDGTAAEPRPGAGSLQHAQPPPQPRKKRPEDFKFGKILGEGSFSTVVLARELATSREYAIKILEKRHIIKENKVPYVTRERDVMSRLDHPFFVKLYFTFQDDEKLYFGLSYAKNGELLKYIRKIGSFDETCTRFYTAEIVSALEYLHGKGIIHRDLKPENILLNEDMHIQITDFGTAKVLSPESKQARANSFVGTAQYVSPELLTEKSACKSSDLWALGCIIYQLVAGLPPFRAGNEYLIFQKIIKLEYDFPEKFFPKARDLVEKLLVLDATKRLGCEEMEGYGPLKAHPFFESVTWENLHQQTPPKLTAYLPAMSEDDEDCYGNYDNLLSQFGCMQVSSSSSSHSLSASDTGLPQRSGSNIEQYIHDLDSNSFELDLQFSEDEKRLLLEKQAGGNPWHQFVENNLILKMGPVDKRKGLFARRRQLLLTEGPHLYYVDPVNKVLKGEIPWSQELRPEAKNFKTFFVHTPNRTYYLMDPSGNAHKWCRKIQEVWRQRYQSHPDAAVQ
UniProt P35590, sequence (whole entry, looked up): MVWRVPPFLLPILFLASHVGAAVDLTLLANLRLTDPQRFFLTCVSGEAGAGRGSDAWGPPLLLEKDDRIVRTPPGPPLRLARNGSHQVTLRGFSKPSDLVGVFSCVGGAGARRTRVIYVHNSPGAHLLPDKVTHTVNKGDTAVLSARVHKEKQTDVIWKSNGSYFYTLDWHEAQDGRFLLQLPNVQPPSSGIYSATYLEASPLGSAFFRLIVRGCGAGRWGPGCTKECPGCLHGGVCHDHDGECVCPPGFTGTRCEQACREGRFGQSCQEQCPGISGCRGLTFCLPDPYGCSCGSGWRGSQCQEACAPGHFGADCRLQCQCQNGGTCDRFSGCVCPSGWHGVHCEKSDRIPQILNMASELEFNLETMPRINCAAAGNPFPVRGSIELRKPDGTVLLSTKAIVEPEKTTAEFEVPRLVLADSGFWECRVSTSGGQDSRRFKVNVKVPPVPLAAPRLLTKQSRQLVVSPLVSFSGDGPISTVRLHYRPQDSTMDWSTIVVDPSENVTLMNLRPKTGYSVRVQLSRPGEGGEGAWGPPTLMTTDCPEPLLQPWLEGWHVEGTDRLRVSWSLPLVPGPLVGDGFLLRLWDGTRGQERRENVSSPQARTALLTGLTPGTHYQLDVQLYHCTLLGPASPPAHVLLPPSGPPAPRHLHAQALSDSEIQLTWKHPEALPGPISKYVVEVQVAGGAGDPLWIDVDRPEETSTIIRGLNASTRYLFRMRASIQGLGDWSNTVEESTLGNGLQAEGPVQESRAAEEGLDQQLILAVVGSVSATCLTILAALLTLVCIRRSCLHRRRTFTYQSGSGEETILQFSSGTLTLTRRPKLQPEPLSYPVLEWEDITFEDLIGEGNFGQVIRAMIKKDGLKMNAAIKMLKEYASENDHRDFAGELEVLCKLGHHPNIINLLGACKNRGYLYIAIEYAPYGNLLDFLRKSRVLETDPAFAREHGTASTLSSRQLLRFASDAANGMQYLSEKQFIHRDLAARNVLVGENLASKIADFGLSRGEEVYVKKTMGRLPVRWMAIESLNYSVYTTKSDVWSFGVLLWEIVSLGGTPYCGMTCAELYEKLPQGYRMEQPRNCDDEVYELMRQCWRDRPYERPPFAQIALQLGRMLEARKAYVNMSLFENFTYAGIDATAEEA
UniProt P46098, sequence (whole entry, looked up): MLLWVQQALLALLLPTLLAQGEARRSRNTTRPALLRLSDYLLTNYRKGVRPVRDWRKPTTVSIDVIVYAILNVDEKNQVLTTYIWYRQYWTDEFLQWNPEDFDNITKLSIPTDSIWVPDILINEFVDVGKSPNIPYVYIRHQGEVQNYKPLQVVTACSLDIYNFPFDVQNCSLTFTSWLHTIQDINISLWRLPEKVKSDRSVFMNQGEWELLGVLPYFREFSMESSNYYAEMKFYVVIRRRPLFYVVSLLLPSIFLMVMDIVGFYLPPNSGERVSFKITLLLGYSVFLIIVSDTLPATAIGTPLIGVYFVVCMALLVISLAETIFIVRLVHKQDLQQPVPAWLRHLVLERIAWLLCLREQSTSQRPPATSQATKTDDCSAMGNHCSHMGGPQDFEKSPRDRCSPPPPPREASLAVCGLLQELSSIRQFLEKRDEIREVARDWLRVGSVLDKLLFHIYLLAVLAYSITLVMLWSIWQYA
UniProt P34972, sequence (whole entry, looked up): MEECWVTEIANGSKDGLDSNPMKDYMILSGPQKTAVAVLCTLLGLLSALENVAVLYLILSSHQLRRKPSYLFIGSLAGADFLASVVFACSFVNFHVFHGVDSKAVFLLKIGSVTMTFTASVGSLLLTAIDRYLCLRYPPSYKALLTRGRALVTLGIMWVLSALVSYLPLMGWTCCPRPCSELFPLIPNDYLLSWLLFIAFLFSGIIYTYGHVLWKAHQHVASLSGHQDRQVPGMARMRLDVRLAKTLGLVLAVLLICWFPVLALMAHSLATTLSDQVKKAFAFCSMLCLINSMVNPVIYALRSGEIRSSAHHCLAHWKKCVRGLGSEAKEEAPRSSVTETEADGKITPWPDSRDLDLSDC
UniProt P21675, sequence (whole entry, unmodified, looked up): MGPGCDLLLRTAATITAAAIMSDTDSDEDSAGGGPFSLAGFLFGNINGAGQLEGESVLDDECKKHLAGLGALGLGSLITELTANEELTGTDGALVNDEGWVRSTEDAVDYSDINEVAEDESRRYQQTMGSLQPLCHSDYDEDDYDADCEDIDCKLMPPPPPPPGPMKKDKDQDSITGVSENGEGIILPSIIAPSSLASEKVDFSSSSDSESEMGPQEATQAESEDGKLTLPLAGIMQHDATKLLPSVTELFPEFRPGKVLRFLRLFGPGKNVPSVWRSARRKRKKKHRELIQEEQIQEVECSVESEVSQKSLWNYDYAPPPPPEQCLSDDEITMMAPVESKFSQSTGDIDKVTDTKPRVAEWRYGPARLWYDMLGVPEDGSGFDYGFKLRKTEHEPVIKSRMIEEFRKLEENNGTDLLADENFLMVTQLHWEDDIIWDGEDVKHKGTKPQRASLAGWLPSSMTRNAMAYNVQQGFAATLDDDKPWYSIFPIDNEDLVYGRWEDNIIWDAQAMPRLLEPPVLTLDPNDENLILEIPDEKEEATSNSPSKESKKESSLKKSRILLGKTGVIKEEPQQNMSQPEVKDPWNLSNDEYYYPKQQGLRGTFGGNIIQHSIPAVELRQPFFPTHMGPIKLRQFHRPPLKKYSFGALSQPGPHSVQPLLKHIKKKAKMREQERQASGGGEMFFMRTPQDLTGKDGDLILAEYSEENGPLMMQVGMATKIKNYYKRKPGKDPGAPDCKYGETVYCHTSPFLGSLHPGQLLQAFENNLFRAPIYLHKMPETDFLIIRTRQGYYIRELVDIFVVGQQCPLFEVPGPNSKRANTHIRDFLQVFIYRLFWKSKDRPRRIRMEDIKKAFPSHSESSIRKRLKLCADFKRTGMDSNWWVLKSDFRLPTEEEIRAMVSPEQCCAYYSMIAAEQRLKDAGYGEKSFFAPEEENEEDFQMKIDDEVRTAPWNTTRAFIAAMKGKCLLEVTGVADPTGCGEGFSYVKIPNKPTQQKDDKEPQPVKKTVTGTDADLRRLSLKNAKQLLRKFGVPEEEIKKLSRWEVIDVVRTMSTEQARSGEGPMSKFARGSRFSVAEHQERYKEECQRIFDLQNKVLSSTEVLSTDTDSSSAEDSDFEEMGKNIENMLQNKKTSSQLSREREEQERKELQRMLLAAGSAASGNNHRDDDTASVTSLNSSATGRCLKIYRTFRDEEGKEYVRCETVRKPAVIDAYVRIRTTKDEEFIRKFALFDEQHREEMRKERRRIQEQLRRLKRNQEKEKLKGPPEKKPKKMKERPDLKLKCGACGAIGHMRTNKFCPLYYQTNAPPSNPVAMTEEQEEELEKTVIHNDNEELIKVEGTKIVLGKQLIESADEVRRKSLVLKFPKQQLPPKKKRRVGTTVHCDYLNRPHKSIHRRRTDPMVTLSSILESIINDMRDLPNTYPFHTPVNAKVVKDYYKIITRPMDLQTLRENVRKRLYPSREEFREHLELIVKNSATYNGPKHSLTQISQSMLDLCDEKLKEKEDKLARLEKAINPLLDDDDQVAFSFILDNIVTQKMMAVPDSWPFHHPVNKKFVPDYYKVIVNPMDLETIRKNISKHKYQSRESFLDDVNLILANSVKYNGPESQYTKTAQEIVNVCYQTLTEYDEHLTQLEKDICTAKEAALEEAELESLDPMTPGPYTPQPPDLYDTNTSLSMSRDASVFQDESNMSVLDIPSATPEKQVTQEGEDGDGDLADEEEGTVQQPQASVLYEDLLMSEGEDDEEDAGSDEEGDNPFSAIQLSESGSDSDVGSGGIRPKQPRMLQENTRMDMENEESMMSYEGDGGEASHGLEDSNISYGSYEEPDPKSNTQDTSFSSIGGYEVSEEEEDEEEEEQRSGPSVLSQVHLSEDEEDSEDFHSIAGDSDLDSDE

CCCCC/C=C\C/C=C\C/C=C\Cc1ccccc1CCCC(=O)OC(CO)CO — Emax (CNR2 (Homo sapiens, UniProt P34972); β-arrestin recruitment, agonist): 69%
COc1ncccc1-c1cnn2ccc(N3CCN(C(=O)OC(C)C)CC3)nc12 — remaining binding (TGFBR1 (Homo sapiens, UniProt P36897); binding, competition with immobilised ligand; 1 µM): 64%
Nc1ncc(-c2nc(N3CCOCC3)nc(N3CCOCC3)n2)c(C(F)F)n1 — remaining binding (TIE1 (Homo sapiens, UniProt P35590); cell-free assay, competition with immobilised ligand; 10 µM): 84%
CCN(CC)CCCC[C@H](NC(=O)[C@H](CC(C)C)NC(=O)[C@H](C)NC(=O)[C@H](Cc1ccccc1)NC(=O)c1ccc(C(C)(C)C)cc1)C(=O)N[C@@H](CO)C(=O)OC — ΔTm (Transcription initiation factor TFIID subunit 1, BD1 (TAF1, Homo sapiens, UniProt P21675); thermal stability, DSF; 25 µM): 0.44 °C
CC(C)CC(=O)OC[C@H]1O[C@@](C#N)(c2ccc3c(N)ncnn23)[C@H](O)[C@@H]1O — inhibition (HTR3A (Homo sapiens, UniProt P46098); enzyme activity, inhibitor; 20 µM): 6%
c1cncc([C@@H]2CCCN2)c1 — inhibition (OPRM1 (Homo sapiens, UniProt P35372); ligand displacement; 50 µM): 11.1%
[2H]c1c([2H])c([C@]2([2H])CCCN2C(=O)C(C)(C)Oc2ccc3cn[nH]c3c2)c([2H])c([2H])c1C([2H])([2H])[2H] — remaining binding (PDPK1 (Homo sapiens, UniProt O15530); binding, competition with immobilised ligand; 1 µM): 72%
Cc1nn(C)cc1-c1nc2c(N3CCN(Cc4ccc(Cl)cc4)CC3)c(Cl)cnc2[nH]1 — remaining binding (TRPM6 (Homo sapiens, UniProt Q9BX84); binding, competition with immobilised ligand; 1 µM): 100%

For quick reference, copied from above:
CCN(CC)CCCC[C@H](NC(=O)[C@H](CC(C)C)NC(=O)[C@H](C)NC(=O)[C@H](Cc1ccccc1)NC(=O)c1ccc(C(C)(C)C)cc1)C(=O)N[C@@H](CO)C(=O)OC — ΔTm (Transcription initiation factor TFIID subunit 1, BD1 (TAF1, Homo sapiens, UniProt P21675); thermal stability, DSF; 25 µM): 0.44 °C
